# Measurements collected from several papers.
# A part holds a random share of what one study measured. Positions count from the first letter of the parent shown.

# Set 1
# Target: Centromere-binding protein 1, full length, His-tagged (CBF1, Saccharomyces cerevisiae, UniProt P17106, residues 1-351)
# UniProt P17106, sequence (whole entry, looked up): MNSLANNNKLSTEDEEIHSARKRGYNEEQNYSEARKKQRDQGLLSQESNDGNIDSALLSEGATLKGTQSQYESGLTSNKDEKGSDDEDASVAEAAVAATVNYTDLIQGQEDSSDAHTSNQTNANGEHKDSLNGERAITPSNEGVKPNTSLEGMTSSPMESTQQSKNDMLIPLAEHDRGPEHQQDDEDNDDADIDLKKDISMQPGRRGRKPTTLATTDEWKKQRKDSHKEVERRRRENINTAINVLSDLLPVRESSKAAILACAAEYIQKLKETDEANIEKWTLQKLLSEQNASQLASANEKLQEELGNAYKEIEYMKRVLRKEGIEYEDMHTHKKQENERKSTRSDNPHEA
# Method: competition protein-binding microarray
# Form: double-stranded DNA, one strand shown
# Matrix: in vitro
# Tested at: 2 µM
# Setting: whole 60-bp probe, lowest competitor level
# Added: Pho4 competitor, 0.05 µM
# Direction: higher = stronger binding
# Shared flanks, not repeated: … GTCTTGATTCGCTTGACGCTGCTG
Strand,fluorescence intensity
GTCTTGTCTCATTGCTCCGTGGGTGTCCCCACTTCA,87.9 a.u.
ACAAATTAATGGCACAACGTGGGTATGACGAAAAAG,105 a.u.
TTATAATAAATAGTACACGTTGCAGACATATTTGGA,152 a.u.
GTCTTGTCTCATTTTCACGTGGAGTTCCCCACTTCA,445 a.u.
TTTCAAGCGTCCGAACGCGTGAGGATATATGCAAGC,90.2 a.u.
CTTTCCCGATCTTGGTTCGTGGGTGTAGCACATTTG,63.3 a.u.
AAGTTCACTTGATGTGGCGTGATGGTCCTTTACCCG,108 a.u.
CGGGGTTAAGTTTTTCACGTGACATGCTTGCAGCAG,5790 a.u.
TGCGGTGTAACGGTCCCCGTGCGGAAGTCAACGGAA,97.6 a.u.

# Set 2
# Target: ATF3, bZIP domain (human)
# Method: DHFR protein complementation
# Matrix: yeast
# Setting: single substitutions, most at no-binding floor
# Baseline: wild-type JUN-FOS pair
# Direction: higher = stronger binding
# Parent: JUN, bZIP domain (human); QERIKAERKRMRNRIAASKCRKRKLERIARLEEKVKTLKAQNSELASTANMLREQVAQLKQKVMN; partner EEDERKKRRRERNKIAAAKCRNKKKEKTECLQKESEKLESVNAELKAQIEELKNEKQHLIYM
Substitution,binding fitness [natural log]
L52F,-0.781
E32I,-0.434
A40V,-0.112
Q55M,-0.386
A29M,-0.439
L45M,-0.44
L38E,-0.937
L52H,-1.43
A57E,-0.0296
M51R,-0.0932

# Set 3
# Target: Ras GTPase-activating protein-binding protein 1, C-terminal RGG region (G3BP1, Homo sapiens, UniProt Q13283)
# UniProt Q13283, sequence (whole entry, looked up): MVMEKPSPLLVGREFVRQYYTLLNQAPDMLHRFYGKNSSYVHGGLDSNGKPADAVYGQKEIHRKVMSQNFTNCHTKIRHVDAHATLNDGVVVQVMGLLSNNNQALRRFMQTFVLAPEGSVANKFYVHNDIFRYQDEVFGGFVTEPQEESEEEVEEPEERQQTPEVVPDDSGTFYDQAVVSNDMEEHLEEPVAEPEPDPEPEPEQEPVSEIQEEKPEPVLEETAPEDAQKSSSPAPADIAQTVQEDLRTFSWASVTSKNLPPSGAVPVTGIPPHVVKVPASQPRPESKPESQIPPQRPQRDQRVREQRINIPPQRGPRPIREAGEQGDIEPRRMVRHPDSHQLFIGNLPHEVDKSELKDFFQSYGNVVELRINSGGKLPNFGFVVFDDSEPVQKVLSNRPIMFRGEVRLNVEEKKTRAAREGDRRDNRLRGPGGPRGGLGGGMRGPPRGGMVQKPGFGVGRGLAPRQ
# Method: RNA Bind-n-Seq
# Form: RNA
# Matrix: in vitro
# Tested at: 1 µM
# Setting: whole 134-nt RNA, ends assumed
# Added: 150 mM KCl
# Baseline: input library
# Direction: higher = stronger binding
# Shared flanks, not repeated: GGGAGUUCUACAGUCCGACGAUC … UGGAAUUCUCGGGUGUCAAGG
Strand,log2 enrichment
CCUGUGCUACACAUCGUAUGUACCGAAUCGGGGUUUUUUUGGGGAAAAAAAGGGGUGGGGAAAGUAUUAUGUUACGCCGUUCGGAUCUGC,0.105
CACAGACAACACGCACCCACACAGACACAGAGGGAAGGGGUUGGGAUGGGGACAGGGUGCACAGCAGGGCGGGGUAGGACUCCAGCCCCU,-0.785
UGGCCCUGGUGGCAUGCGGGGAGGAAGAGGUGGCGUCAUGGAUCGUGGUGGUCCCGGUGGAAUGUUCAGAGGUGGCCGUGGUGGAGACAG,2.49
UGGCCCUGGUGGCAUGCGGGGAGGAAGAGGUGGCCUCAUGGAUCGUGGUGGUCCCGGUGGAAUGUUCAGAGGUUGCCGUGGUGGAGACAG,3
CUCAAGUCCUGUGCUACACAUCGUAUGUACCGAAUCGGAGGUUUUUUUGGUGGAAAGUAUUAUGUUACGCCGUUCGGAUCUGCACUUCCA,-1.22
CCUCAAGUCCUGUGCUACACAUCGUAUGUACCGAAUCGGUUUGGUGGUUUGGAAAGUAUUAUGUUACGCCGUUCGGAUCUGCACUUCCAG,-0.918
AGUCCUGUGCUACACAUCGUAUGUACCGAAUCGGGGUUUUUGGGGAAAGGGGUGGGGAAAGUAUUAUGUUACGCCGUUCGGAUCUGCACU,2.72
GUCCUGUGCUACACAUCGUAUGUACCGAAUCGGGUUUUUUUGGGUUUGGGUUUUUGGGAAAGUAUUAUGUUACGCCGUUCGGAUCUGCAC,0.321
ACCAUGCAGGUGGGCAUCUUUGGGAAGUGGGGCAAGGGGGGGAUAGGGAGGGGGGUAACACUUUGAGAACAGGUGGUCCCAGGUCGUUUC,2.19
GCAGGAAGUAAAAACCAAUGGAAAUGCUUCGGAUAGUGGCAGGGGUGGGGGUUGCUAAGGAAAGGGUGGGAUGGGAGUGGGUAAAGAGUU,2.29
AAGUCCUGUGCUACACAUCGUAUGUACCGAAUCGGUUUUUGGAAAGGAAAAAAAGGAAAGUAUUAUGUUACGCCGUUCGGAUCUGCACUU,-1.93
UGUGCUACACAUCGUAUGUACCGAAUCGGGGAAAAAAAGGGGAAAAAAAGGGAAAAAAAGGGAAAGUAUUAUGUUACGCCGUUCGGAUCU,-0.838
GCAGGAAGUAAAAACAAAUGGAAAUGCUUCGGAUAGUGACAGGGGUGGGGGUUGCUAAGGAAAGGGUGGGAUGGGAGUGGGUAAAGAGUU,0.874
AAGUCCUGUGCUACACAUCGUAUGUACCGAAUCGGGAAAGGGAAAGGGGAAAGGGGAAAGUAUUAUGUUACGCCGUUCGGAUCUGCACUU,1.38

# Set 4
# Target: CCNB1, cyclin fold, Cln2 fusion (human)
# Method: yeast growth competition, sequencing
# Matrix: yeast
# Setting: weak parent motif
# Baseline: not given
# Direction: higher = stronger binding
# Parent: RBL1 docking peptide (human); GSAKRRLFGEDPP
Substitution,normalised enrichment score
L7R,0.323
L7E,-0.1
L7T,-0.32
S2D,0.516
E10T,0.323
G1C,0.0778
P13W,1.15
K4Y,0.617
E10S,0.881
G1H,0.0933
G1T,1.18
P12Y,1.43
D11S,1.29
D11F,-0.0121
E10G,0.0652
P12W,0.294
R6E,0.757
P12V,0.512
K4D,-0.27
E10R,1.14
R5M,0.664
R6S,0.219
R5Y,0.352
R6C,0.0556
G1A,0.503
